Published values pooled from the literature.
A part holds a random share of what one study measured. “And” joins repeats or separate records; there may be more than shown.
Chain of UniProt P09769 (whole entry, looked up): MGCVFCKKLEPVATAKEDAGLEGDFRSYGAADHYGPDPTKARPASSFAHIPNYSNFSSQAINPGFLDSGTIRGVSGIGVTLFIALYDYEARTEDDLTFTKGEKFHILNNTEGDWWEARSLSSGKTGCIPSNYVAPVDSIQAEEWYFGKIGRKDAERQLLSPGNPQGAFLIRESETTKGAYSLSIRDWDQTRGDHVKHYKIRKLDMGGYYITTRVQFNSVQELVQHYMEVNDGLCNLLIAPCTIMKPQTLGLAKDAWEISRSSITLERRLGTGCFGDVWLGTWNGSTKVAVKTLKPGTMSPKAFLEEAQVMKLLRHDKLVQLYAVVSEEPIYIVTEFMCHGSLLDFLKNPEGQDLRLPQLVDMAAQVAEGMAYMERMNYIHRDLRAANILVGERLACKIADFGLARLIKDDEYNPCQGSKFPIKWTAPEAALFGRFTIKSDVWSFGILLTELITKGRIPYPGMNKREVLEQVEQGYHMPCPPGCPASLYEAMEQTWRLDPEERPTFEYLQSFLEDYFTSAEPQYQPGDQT
Chain of UniProt O75914 (whole entry, looked up): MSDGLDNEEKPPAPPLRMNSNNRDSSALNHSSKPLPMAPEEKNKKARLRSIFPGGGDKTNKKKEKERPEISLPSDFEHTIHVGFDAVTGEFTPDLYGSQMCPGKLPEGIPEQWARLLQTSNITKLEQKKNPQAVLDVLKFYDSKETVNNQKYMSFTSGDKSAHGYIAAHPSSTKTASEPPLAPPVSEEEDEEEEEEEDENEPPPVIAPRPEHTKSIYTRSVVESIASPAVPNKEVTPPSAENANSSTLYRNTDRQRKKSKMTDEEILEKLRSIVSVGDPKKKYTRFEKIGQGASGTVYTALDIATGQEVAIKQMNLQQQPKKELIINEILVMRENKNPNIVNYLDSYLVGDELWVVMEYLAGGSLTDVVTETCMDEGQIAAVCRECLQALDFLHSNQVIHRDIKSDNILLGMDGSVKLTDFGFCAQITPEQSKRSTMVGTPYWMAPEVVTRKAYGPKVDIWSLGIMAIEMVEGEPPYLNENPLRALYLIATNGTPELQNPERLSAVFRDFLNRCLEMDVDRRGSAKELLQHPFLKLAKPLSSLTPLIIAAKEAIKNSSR
Chain of UniProt Q9HC98 (whole entry, looked up): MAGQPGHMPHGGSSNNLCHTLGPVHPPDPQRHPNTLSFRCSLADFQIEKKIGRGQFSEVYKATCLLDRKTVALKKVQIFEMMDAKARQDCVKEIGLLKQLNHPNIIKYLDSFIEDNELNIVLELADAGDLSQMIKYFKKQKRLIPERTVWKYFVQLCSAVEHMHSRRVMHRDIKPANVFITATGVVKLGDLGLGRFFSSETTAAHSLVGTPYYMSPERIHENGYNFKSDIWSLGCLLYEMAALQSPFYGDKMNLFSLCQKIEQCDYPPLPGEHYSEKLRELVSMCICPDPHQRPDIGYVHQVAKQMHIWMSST
Chain of UniProt Q9Y6R4 (whole entry, looked up): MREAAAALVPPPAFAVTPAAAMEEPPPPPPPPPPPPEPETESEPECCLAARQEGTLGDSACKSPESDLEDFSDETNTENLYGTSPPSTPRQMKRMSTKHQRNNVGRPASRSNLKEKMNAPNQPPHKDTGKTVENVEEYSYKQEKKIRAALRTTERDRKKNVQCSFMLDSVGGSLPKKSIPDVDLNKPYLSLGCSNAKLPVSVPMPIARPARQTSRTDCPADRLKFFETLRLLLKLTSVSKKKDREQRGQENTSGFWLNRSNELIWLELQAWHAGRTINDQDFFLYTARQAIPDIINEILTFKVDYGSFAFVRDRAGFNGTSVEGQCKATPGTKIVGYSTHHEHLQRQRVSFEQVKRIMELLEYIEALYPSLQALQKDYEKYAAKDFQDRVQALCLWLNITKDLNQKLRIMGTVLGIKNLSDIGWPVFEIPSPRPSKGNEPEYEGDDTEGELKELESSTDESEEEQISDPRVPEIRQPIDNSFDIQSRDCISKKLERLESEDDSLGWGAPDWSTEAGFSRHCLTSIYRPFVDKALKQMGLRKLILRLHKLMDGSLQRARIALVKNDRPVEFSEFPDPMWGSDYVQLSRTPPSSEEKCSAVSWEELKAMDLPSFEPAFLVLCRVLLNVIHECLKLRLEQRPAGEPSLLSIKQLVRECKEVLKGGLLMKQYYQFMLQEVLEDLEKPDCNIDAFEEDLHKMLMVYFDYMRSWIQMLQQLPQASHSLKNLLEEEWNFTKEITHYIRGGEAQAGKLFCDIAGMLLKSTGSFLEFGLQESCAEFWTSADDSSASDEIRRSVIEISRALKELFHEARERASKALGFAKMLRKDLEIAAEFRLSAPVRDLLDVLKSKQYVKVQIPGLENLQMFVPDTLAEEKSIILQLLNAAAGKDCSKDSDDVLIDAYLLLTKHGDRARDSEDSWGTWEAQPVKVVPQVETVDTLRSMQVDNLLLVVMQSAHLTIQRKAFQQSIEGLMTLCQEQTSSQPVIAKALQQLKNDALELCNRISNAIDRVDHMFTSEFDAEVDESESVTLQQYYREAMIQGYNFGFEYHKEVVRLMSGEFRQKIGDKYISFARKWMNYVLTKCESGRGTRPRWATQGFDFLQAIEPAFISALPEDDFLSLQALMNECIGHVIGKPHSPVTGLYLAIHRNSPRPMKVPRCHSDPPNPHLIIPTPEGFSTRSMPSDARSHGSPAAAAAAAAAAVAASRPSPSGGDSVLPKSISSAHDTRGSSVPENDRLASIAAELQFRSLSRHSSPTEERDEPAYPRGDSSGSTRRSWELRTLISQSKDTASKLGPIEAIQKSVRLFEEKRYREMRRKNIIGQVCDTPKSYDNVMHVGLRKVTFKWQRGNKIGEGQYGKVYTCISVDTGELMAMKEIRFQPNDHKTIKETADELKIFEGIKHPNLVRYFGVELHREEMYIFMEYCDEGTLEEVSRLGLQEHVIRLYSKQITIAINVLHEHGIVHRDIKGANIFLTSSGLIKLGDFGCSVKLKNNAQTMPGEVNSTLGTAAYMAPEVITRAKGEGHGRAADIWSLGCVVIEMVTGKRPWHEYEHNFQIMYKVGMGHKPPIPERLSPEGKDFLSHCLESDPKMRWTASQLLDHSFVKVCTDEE
Chain of UniProt P31152 (whole entry, looked up): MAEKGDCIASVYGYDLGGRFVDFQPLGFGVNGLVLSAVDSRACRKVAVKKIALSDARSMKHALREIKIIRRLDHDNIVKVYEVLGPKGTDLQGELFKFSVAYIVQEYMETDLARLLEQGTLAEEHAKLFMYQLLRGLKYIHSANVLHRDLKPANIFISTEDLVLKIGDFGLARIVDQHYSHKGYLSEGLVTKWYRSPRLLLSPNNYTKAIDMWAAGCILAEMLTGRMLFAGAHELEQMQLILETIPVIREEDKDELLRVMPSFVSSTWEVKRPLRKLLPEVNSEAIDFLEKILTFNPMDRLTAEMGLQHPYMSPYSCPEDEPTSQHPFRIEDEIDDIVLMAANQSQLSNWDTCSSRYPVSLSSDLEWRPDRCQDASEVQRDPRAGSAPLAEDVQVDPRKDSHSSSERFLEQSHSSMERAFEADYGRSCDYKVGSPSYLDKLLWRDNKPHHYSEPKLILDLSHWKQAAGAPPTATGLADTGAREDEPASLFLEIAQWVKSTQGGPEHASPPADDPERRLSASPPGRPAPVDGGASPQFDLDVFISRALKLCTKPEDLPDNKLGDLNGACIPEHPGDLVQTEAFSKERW
Chain of UniProt Q86UX6 (whole entry, looked up): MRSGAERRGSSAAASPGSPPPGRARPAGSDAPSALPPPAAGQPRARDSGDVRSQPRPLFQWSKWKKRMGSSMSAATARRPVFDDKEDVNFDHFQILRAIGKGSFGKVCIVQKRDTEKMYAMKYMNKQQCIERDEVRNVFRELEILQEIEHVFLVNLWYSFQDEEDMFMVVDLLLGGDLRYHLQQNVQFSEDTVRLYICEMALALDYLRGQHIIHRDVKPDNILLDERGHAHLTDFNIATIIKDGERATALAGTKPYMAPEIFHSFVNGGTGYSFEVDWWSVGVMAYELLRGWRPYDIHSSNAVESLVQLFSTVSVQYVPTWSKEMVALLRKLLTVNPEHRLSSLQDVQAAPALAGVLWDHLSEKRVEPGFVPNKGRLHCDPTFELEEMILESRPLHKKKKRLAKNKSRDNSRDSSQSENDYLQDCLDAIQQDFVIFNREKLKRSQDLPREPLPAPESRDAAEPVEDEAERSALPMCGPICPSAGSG

Sample 1
Cell line: UACC-903 melanoma
| Compound | IC50 [µM] |
| --- | --- |
| CNCCCN1c2ccccc2CCc2ccccc21 | 20.6 |
| CN(C)CCC=C1c2ccccc2CCc2ccccc21 | 27.3 |
| CN(C)CCCN1c2ccccc2CCc2ccccc21 | 41 |
| CCN(CC)CCCC(C)Nc1c2ccc(Cl)cc2nc2ccc(OC)cc12 (centres unmarked) | 2.6 |
| CC(C)(C)c1ccc(C(O)CCCN2CCC(C(O)(c3ccccc3)c3ccccc3)CC2)cc1 (centres unmarked) | 4.6 |

Sample 2
Species: human
Matrix: microsomes or S9
Tested at: 2 µM
Time: 0.5 h
| Compound | remaining compound [%] |
| --- | --- |
| CCc1c(C)sc(NC(=O)CN2CCN(C(=O)C3CCCO3)CC2)c1C(=O)OC (centres unmarked) | 0.0106 |
| Cc1nccc(-c2ccccc2Cl)c1C(OC(C)(C)C)C(=O)NCCO (centres unmarked) | 3.52 |
| CC(C)(C)c1csc(NNC(=O)c2ccc(Br)cc2)n1 | 44.1 |

Sample 3
Cell line: mouse MPNST tumor cells
Method: high-content immunofluorescence imaging
Refers to: nuclear SOX9
Tested at: 10 µM
Time: 12 h
Setting: mean of 2 replicates
Relative to: DMSO control
Direction: higher = more nuclear SOX9
| Compound | nuclear SOX9 intensity |
| --- | --- |
| Cc1c(C(=O)NN2CCS(=O)(=O)CC2)nn(-c2ccc(Cl)cc2Cl)c1-c1ccc(C#CCCC#N)cc1 | 89.5 % of DMSO |
| O=C(c1ccc(F)cc1)C1CCN(CCn2c(=O)[nH]c3ccccc3c2=O)CC1 | 103 % of DMSO |
| O=C1c2ccccc2C(=O)C1c1ccccc1 | 96.5 % of DMSO |

Sample 4
SMILES: CC(C)n1cnc(-c2ccc(F)cc2)c1-c1ncc(C(=O)Nc2ccc(N3CCN(C)CC3)cc2)[nH]1
Method: phase 2a trial
Species: idiopathic pulmonary fibrosis patients
| dose | setting | patients with dyspnoea [%] |
| --- | --- | --- |
| 60 mg once daily | adverse event grade 3 | 0 |
| dose not given | adverse event grade 4, all dose arms pooled | 0 |
| 30 mg once daily | adverse event grade 3 | 0 |
| dose not given | adverse event grade 1, all dose arms pooled | 0 |

Sample 5
Compound: CC(=O)N[C@@H](Cc1c[nH]c2ccccc12)C(=O)N[C@@H](CCC(=O)C=[N+]=[N-])C(=O)OC(C)C
| species | route | dose | time | tumour volume |
| --- | --- | --- | --- | --- |
| mouse, EL4 tumour | subcutaneous | 0.1 mg/kg | day 15 | 883 mm3 and 863 mm3 and 616 mm3 and 647 mm3 and 2040 mm3 and 128 mm3 |
| mice, MC-38 tumour rechallenge |  | 1 mg/kg | day 71 after injection | 0 mm3 |
| mouse, EL4 tumour | subcutaneous | 0.3 mg/kg | day 14 | 177 mm3 and 31.1 mm3 and 97.7 mm3 and 874 mm3 and 296 mm3 and 531 mm3 |
| CES1-/- mice, OVA-expressing MC-38 tumour |  | dose not given | day 17 after injection | 0 mm3 and 66 mm3 and 126 mm3 and 21 mm3 |

Sample 6
SMILES: c1ccc(Oc2ccc(Nc3c4c(nc5ccccc35)CCC4)cc2)cc1
Method: resazurin
| cell line | tested at | time | cytotoxicity |
| --- | --- | --- | --- |
| HepG2 | 0.066 µM | 48 h | 2% and 1% |
| HepG2 | 0.0066 µM | 48 h | 4% and 5% |
| RAW264.7 | 0.0166 µM |  | -7% and -1% |

Sample 7
Compound: COCCOc1nc(-c2ccc(Cl)nc2)nc2c1CN(C(=O)c1ncn3ccccc13)CC2
Observed: cell-free assay
Method: competition with immobilised ligand
Tested at: 0.1 µM
| target | remaining binding [%] |
| --- | --- |
| Serine/threonine-protein kinase Nek7 (NEK7, Homo sapiens, UniProt Q8TDX7) | 100 |
| Tyrosine-protein kinase ABL1, phosphorylated (ABL1, Homo sapiens, UniProt P00519, Y253F) | 93 |
| Serine/threonine-protein kinase RIO3 (RIOK3, Homo sapiens, UniProt O14730) | 100 |
| Epidermal growth factor receptor (EGFR, Homo sapiens, UniProt P00533, T790M) | 61 |
| Dual specificity protein kinase TTK (TTK, Homo sapiens, UniProt P33981) | 100 |
| Receptor-type tyrosine-protein kinase FLT3, autoinhibited (FLT3, Homo sapiens, UniProt P36888) | 100 |
| Serine/threonine-protein kinase 32C (STK32C, Homo sapiens, UniProt Q86UX6) | 100 |
| Dual specificity testis-specific protein kinase 1 (TESK1, Homo sapiens, UniProt Q15569) | 100 |
| Cyclin-dependent kinase 4, with cyclin D3 (CDK4, Homo sapiens, UniProt P11802) | 93 |
| Serine/threonine-protein kinase PAK 3 (PAK3, Homo sapiens, UniProt O75914) | 100 |
| Membrane-associated tyrosine- and threonine-specific cdc2-inhibitory kinase (PKMYT1, Homo sapiens, UniProt Q99640) | 100 |
| Tyrosine-protein kinase ABL1, non-phosphorylated (ABL1, Homo sapiens, UniProt P00519, Q252H) | 74 |
| Epidermal growth factor receptor (EGFR, Homo sapiens, UniProt P00533, G719S) | 97 |
| Ribosomal protein S6 kinase alpha-1, C-terminal kinase domain (RPS6KA1, Homo sapiens, UniProt Q15418) | 100 |
| Serine/threonine-protein kinase RIO1 (RIOK1, Homo sapiens, UniProt Q9BRS2) | 93 |
| Cyclin-dependent kinase-like 2 (CDKL2, Homo sapiens, UniProt Q92772) | 98 |
| Mitogen-activated protein kinase kinase kinase 4 (MAP3K4, Homo sapiens, UniProt Q9Y6R4) | 100 |
| Mitogen-activated protein kinase kinase kinase 6 (MAP3K6, Homo sapiens, UniProt O95382) | 100 |
| STE20/SPS1-related proline-alanine-rich protein kinase (STK39, Homo sapiens, UniProt Q9UEW8) | 100 |
| Mitogen-activated protein kinase kinase kinase 12 (MAP3K12, Homo sapiens, UniProt Q12852) | 97 |
| Mitogen-activated protein kinase 4 (MAPK4, Homo sapiens, UniProt P31152) | 100 |
| Receptor-type tyrosine-protein kinase FLT3 (FLT3, Homo sapiens, UniProt P36888) | 85 |
| Microtubule-associated serine/threonine-protein kinase 1 (MAST1, Homo sapiens, UniProt Q9Y2H9) | 100 |
| Tyrosine-protein kinase ABL1, phosphorylated (ABL1, Homo sapiens, UniProt P00519) | 68 |
| Serine/threonine-protein kinase Nek6 (NEK6, Homo sapiens, UniProt Q9HC98) | 100 |

Mixed results
| SMILES | target or system | test | system | setting | quantity | result |
| --- | --- | --- | --- | --- | --- | --- |
| C[C@H]1CC[C@H](n2c3cnccc3c3cnc(Nc4ccc5c(n4)CCN(C(=O)CO)C5)nc32)CC1 | Tyrosine-protein kinase Fgr (FGR, Homo sapiens, UniProt P09769) | cell-free assay, competition with immobilised ligand |  | 1 µM | remaining binding | 38% |
| CN1C(C(=O)Nc2ccccn2)=C(O)c2ccccc2S1(=O)=O | A-375 |  |  | 100 µM, 60 h | viability | 90.6% |
| COc1ccc(-c2c(Nc3ccccn3)[nH]c3c(C4=CCCCC4)c(-c4ccccc4)nn3c2=O)cc1 |  |  | human, plasma | oral, 200 mg twice daily | average concentration | 10300 ng/mL and 11100 ng/mL |

A few entries again (sample 1):
| Compound | IC50 [µM] |
| --- | --- |
| CNCCCN1c2ccccc2CCc2ccccc21 | 20.6 |
| CN(C)CCC=C1c2ccccc2CCc2ccccc21 | 27.3 |
| CN(C)CCCN1c2ccccc2CCc2ccccc21 | 41 |
| CCN(CC)CCCC(C)Nc1c2ccc(Cl)cc2nc2ccc(OC)cc12 (centres unmarked) | 2.6 |
| CC(C)(C)c1ccc(C(O)CCCN2CCC(C(O)(c3ccccc3)c3ccccc3)CC2)cc1 (centres unmarked) | 4.6 |
